Experimental data pooled from the literature.
Several values in a cell are separate wells, animals, samples, runs or records. ± gives the spread as reported.

SMILES | target or system | test | system | setting | how to read | measurement | result
O=C1CCc2ccc(OCCCCN3CCN(c4cccc(Cl)c4Cl)CC3)cc2N1 | – | refers to: stopping or switching | patients CYP2D6 extreme phenotypes | dose not given, 3 months | relative to: IM versus NM | hazard ratio | 2.49
CCCCCN1C[C@H](O)[C@@H](O)[C@H](O)[C@@H]1CO | – | – | mouse Hexb-/-, liver | 30 mg/kg/day | relative to: untreated Hexb-/- mice | number of increased sphingolipids | 1
CN[C@@H]1COc2c(S(=O)(=O)NC(=O)Nc3c4c(cc5c3CCC5)CCC4)cnn2C1 | – | refers to: IL-18 | human participants, whole blood ex vivo | 900 mg twice daily, multiple doses, 96 h, IL-18, circulating, adjusted for, together with: LPS/ATP | relative to: baseline | inhibition | 99.6%
N#Cc1ccc2c(c1)[C@H]1CCCN(C(=O)c3ccc4[nH]cnc4c3)[C@H]1C2 | – | meal tolerance test | human, Phase II trial | 240 mg once daily, day 28, AUC0-2 h, adjusted mean | relative to: baseline | glucose AUC change | 1.07 mmol/h/L
Cn1cc(Nc2nccc(-c3ccc4c(c3)CN(C3COC3)CC[C@H]4NC(=O)c3cn(C(C)(C)C)nn3)n2)cn1 | – | refers to: Endocannabinoid Neuronal Synapse Pathway | splenic B cells, Mus musculus | 30 mg/kg, together with: IgD activation | relative to: vehicle, direction not given | pathway activation z-score | 2.5
c1ccc(-c2n[nH]cc2-c2ccnc3ccccc23)nc1 | – | kinase binding, competitor, MIB/MS competition, refers to: PKH3 | Candida albicans cell lysate | 1 µM | relative to: DMSO | log2 fold change | 1.25
O=C(OC(C(F)(F)F)C(F)(F)F)N1CCN(Cc2cccc(Oc3ccccc3)c2)CC1 | – | PET blocking study | rhesus monkey, brain CB | 0.3 mg/kg, compound pretreatment, together with: [18F]T-401 tracer | – | k4 | 0.261 min⁻¹
O=P(O)(O)C(Cl)(Cl)P(=O)(O)O | – | – | Mus musculus, subarachnoid haemorrhage, hippocampal fissure | concentration not given, day 1 | relative to: total area | Iba1-positive area | 0.45% and 0.36% and 0.96%
CC(=O)c1cnc2ccc(-c3cc(Cl)c(O)c(Cl)c3)nc2c1N[C@H]1CC[C@H](CN(C)C)CC1 | – | phosphoproteomics, refers to: AHA1 | Arabidopsis thaliana seedlings | concentration not given, together with: RALF1 | – | RALF1-induced phosphorylation | decreased
CC(=O)Oc1cc2c(s1)CCN(C(C(=O)C1CC1)c1ccccc1F)C2 (stereo not shown) | – | platelet aggregation, light transmission aggregometry | human patients, platelet-rich plasma | 3 h, together with: TRAP 5 µM | – | patients with IPA above 90% | 9.5%
C=CCn1c(=O)c2cnc(Nc3ccc(N4CCN(C)CC4)cc3)nc2n1-c1ccc2c(n1)[C@@](O)(CC)CC2 | – | – | SW1573 xenograft, NOD/SCID mice | oral, 80 mg/kg, day 28, once daily intermittent cycles | – | tumour growth inhibition | 47.7%
C[C@]12CC[C@@H]3c4ccc(O)cc4CC[C@H]3[C@@H]1CC[C@@H]2O | – | RT-qPCR, refers to: CO | Arabidopsis thaliana ING1:FLAG seedlings | dose not given, 4 h, unit not given | relative to: TUB2 | mRNA level | 0.0047 and 0.0059
NCC(=O)Nc1cncc(-c2nn3c(=O)cc(N4CCNCC4)nc3s2)c1 | – | ADP-induced platelet aggregation, light transmission aggregometry | human stable CAD patients on aspirin, platelets ex vivo | 0.075 mg/kg, 15 min post dose, together with: 20 µM ADP | relative to: placebo difference | inhibition of platelet aggregation | 74.1%
CC(C)n1c(C2CCNCC2)nc2c([N+](=O)[O-])c(Br)c(Br)cc21 | – | refers to: blasts | AML patients IDH mutated, bone marrow | dose not given, all doses | – | maximum change from baseline | 279%
Nc1nc2cc(-c3ccc4ncc(C(=O)N5CCOCC5)n4c3)ccc2o1 | – | RECIST v1.1 | advanced solid tumour patients | dose not given, all schedules | – | clinical benefit rate | 34%
C[C@H](Oc1ccc(Br)cc1-c1ccon1)C(=O)O | – | first response peak | human, tibialis anterior muscle | 1200 mg, 30-15 Hz, SAD | – | difference from placebo | 6.54%
CCCCC1(CCCC)CN(c2ccccc2)c2cc(SC)c(OCC(=O)N[C@@H](C(=O)NCC(=O)O)c3ccccc3)cc2S(=O)(=O)C1 | – | refers to: 7α-hydroxy-4-cholesten-3-one | human, plasma | 20 mg once daily, day 13 | – | plasma C4 | 69.1 ng/mL
COc1ccc(-c2cncc(N[C@@H](C)c3cccc(NC(=O)c4cncc(C)c4)c3)n2)cc1OC | – | refers to: rno-miR-211-5p | rat SU5416/hypoxia model, lung | dose not given | relative to: SU5416/hypoxia vehicle | fold change | 0.696
Clc1ccc(C(c2ccc(Cl)cc2)n2cc[n+](CC(OCc3ccc(Cl)cc3Cl)c3ccc(Cl)cc3Cl)c2)cc1 (stereo not shown) | Toxoplasma gondii | parasite growth, luciferase reporter | HFF, tachyzoite | 72 h | – | EC90 | 19.2 µM
CCN(Cc1nc2c(N)nc3cc(-c4cc[nH]n4)ccc3c2[nH]1)C(C)=O | – | immunohistochemistry, refers to: PD-L1+ immune cells | patients with advanced solid tumours, injected tumour lesions | dose not given, monotherapy | relative to: baseline | mean fold change | 1.5
CC1(C)CCC(c2ccc(Cl)cc2)=C(CN2CCN(c3ccc(C(=O)NS(=O)(=O)c4ccc(N[C@H](CCN5CCOCC5)CSc5ccccc5)c(S(=O)(=O)C(F)(F)F)c4)cc3)CC2)C1 | – | cell killing | canine lymph node CD3+ T cells, dog 34 | 24 h | – | EC50 | 265 nM
COc1ccccc1[C@H](Cn1c(=O)n(C(C)(C)C(=O)O)c(=O)c2c(C)c(-c3ncco3)sc21)OC1CCOCC1 | – | [1-13C]acetate infusion, isotopomer analysis | overweight or obese healthy men, plasma VLDL-TG palmitate | oral, 200 mg single dose, -1 h relative to dose, fasted baseline | – | fractional hepatic DNL | 6.5 % new palmitate
Cc1c(NC(=O)c2cccnc2)c(=O)n(-c2ccccc2)n1C | – | echocardiography | Dmd C3333Y mouse | dose not given | – | fractional shortening | 33.3% and 31.5% and 32.9% and 32.5% and 35.6%

SMILES | target or system | test | system | setting | how to read | measurement | result
OC[C@H]1O[C@@H](c2ccc(Cl)c(Cc3ccc(O[C@H]4CCOC4)cc3)c2)[C@H](O)[C@@H](O)[C@@H]1O | – | – | healthy Korean men, blood | oral, dose not given, steady state OGTT | – | insulin AUEC | 100 ± 26.1 h·µU/mL
C[C@H]1C[C@H]2CSC(N)=N[C@@]2(c2nc(NC(=O)c3ccc(OC(F)F)cn3)cs2)CO1 | – | refers to: Aβ1-40 | healthy adults, plasma | 125 mg once daily, day 7 | relative to: placebo | percent change from baseline | -87.1%
C=Cc1c(C)c2cc3nc(c(CC(=O)O)c4[nH]c(cc5nc(cc1[nH]2)C(C)=C5CC)c(C)c4C(=O)O)[C@@H](CCC(=O)O)[C@@H]3C | – | flow cytometry | mouse, 4T1 tumour-bearing | dose not given, 1 h | – | PD-L1+ cells | 1.94% and 2% and 2.03%
Cc1n[nH]c2ccc(-c3cc(OC[C@@H](N)Cc4ccccc4)cnc3-c3ccoc3)cc12 | – | kinase binding, competitor, MIB/MS competition, refers to: PKH2 | Candida albicans cell lysate | 1 µM | relative to: DMSO | log2 fold change | -0.0865
CC(C)NCC(O)c1ccc(O)c(O)c1 (stereo not shown) | – | – | ventricular cardiomyocytes, C57BL/6 mouse | dose not given, 0.444 s | – | sarcomere length | 1.71 µm
O=C(Nc1ccncc1)c1cc([N+](=O)[O-])ccc1Cl | Toxoplasma gondii | parasite growth, luciferase reporter | HFF, tachyzoite | 72 h | – | EC50 | 746 nM
N#Cc1ccc2c(-c3ccncc3)c(-c3ccc(F)cc3)nn2c1 | – | kinase binding, competitor, MIB/MS competition, refers to: SHA3 | Candida albicans cell lysate | 1 µM | relative to: DMSO | log2 fold change | -0.478
O=C(O)CNC(=O)Cc1ccccc1 | – | – | ventricular cardiomyocytes, C57BL/6 mouse | dose not given, 0.26 s | – | sarcomere length | 1.66 µm
OC(CCN1CCCCC1)(c1ccccc1)C1CC2C=CC1C2 (stereo not shown) | – | resting-state EEG | healthy elderly humans | oral, 2 mg, eyes closed, LS mean | relative to: baseline | change in EEG Beta3-power Pz-O1 | 5.7%
COc1cc2nccc(Oc3ccc(NC(=O)NC4CC4)c(Cl)c3)c2cc1C(N)=O | – | refers to: Ang-2 | human, serum | PK/PD model, point estimate | – | Hill coefficient | 4.27
COc1cnc(-n2cnc(C)n2)c2[nH]cc(C(=O)C(=O)N3CCN(C(=O)c4ccccc4)CC3)c12 | – | refers to: HIV-1 RNA change | HIV-1 patients, plasma | – | – | Emax | 1 log10 copies/mL
CO[C@H]1CC[C@H](N2C(=O)CNc3ncc(-c4ccc(C(C)(C)O)nc4)nc32)CC1 | – | flow cytometry | stimulated T cells, human, blood | 30 mg single dose, 24 h, median | relative to: baseline | p4EBP1 change from baseline | -33.2%
COc1cc2cc(-c3ccc(CC(=O)Nc4cc(C(C)(C)C(F)(F)F)no4)cn3)cnc2cc1OC | – | RECIST v1.1 | human RET-altered solid tumours | dose not given, phase I parts A and B | – | best overall response CR | 0%
Cc1cc(C)c(CNC(=O)c2cc(Cl)c3c(c2C)O[C@@](C)([C@H]2CC[C@H](N(C)C)CC2)O3)c(=O)[nH]1 | – | IWG 2007 criteria | human, relapsed/refractory B-cell NHL | dose not given | – | best overall response CR | 11%
NC(=O)c1cnc2[nH]ccc2c1N[C@@H]1[C@@H]2CC3C[C@H]1C[C@@](O)(C3)C2 | – | flow cytometry | Japanese healthy men, blood | oral, 100 mg twice daily, 72 h after day 7 dose | relative to: baseline | regulatory T-cell change | -0.48%
CN(C)C(=O)Oc1cccc([N+](C)(C)C)c1 | – | neuromuscular block reversal | rat | dose not given, 10.5 (unit not given), together with: cisatracurium | relative to: T1 twitch | train-of-four ratio | 81.1
O=C(COc1ccc(Cl)cc1)NC12CC(c3nnc([C@H]4C[C@@H](OC(F)(F)F)C4)o3)(C1)C2 | – | – | healthy human, PBMC | 45 mg once daily, day 15, 24 h post-dose, median, together with: sodium arsenite ex vivo | relative to: baseline | ATF4 protein change | -50.2%
COc1nnc2ccc(N3CCC(c4ccc(OCCN5CCN(C)C(=O)[C@H]5C)cc4)CC3)nn12 | – | – | human patients | 2 mg once daily, above baseline variability | – | time above HEXIM1 threshold | 1.7 h
C[C@@H]1C[C@H]2O[C@@]3(O[C@@H]2C(C)(C)O)[C@H](O)[C@@]2(C)[C@@H]4CC[C@H]5C(C)(C)[C@@H](O[C@@H]6OC[C@@H](O)[C@H](O)[C@H]6O)CC[C@@]56C[C@@]46CC[C@]2(C)[C@@H]13 | – | agonist, qPCR, refers to: Shp | medaka larvae, water exposure | 10 µM, 48 h | relative to: maximal induction by reference agonist | mRNA induction | 73.8%
O=S(=O)(NCCNC/C=C/c1ccc(Br)cc1)c1cccc2cnccc12 | – | – | mouse zygotes | 20 µM, 72 h post-hCG | – | embryos reaching 4-cell | 60% and 52.9%
O=C1O[C@H]([C@@H](O)CO)C(O)=C1O | – | hydroxyl radical scavenging | – | 40 µM | – | inhibition | 20.7%
N#Cc1ccn2c(-c3ccncc3)c(-c3ccc(F)cc3)nc2c1 | – | kinase binding, competitor, MIB/MS competition, refers to: CKA1 | Candida albicans cell lysate | 100 nM | relative to: DMSO | log2 fold change | -0.121
CN(C)C(=O)c1cc2cnc(Nc3ccc(N4CCNCC4)cn3)nc2n1C1CCCC1 | – | RNA-seq GSEA, refers to: HALLMARK_NOTCH_SIGNALING | MB002 tumour | concentration not given, in vivo | relative to: vehicle, direction not given | GSEA enrichment score | 0.3
